Results from different studies.
Parts stem from different laboratories: compare values within a part only. Positions count from the first letter of the parent shown.

Set 1
Target: CCNF, cyclin fold, Cln2 fusion (human)
Technique: yeast growth competition, sequencing
Medium: yeast
Setting: strong parent motif
Reference: not given
Reading: higher = stronger binding
Starting sequence: EXO1 docking peptide (human); KPECGRVQRAIFQ; partner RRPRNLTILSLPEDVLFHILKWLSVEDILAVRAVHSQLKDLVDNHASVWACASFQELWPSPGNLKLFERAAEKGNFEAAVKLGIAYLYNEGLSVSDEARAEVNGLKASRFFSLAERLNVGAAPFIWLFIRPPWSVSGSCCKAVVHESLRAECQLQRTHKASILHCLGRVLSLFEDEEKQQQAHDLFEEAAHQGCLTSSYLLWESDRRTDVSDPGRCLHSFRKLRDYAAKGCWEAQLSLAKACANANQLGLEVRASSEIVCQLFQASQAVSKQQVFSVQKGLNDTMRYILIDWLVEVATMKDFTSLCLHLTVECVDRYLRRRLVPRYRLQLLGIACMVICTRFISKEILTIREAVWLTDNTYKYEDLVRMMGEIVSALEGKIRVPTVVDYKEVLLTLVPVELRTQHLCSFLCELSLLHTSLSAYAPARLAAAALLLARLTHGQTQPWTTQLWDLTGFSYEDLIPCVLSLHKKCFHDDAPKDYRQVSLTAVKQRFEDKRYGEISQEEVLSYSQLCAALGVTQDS
`KPECGRVQRAIFA [Q13A]` — result for “normalised enrichment score”: 2.32.
For `KPACGRVQRAIFQ [E3A]`, “normalised enrichment score” read 2.12.
For `APECGRVQRAIFQ [K1A]`, “normalised enrichment score” read 1.92.
For `KPECGAVQRAIFQ [R6A]`, “normalised enrichment score” read 1.64.
`KPECGRVQAAIFQ [R9A]`: “normalised enrichment score” 0.264.
For `KPECGRAQRAIFQ [V7A]`, “normalised enrichment score” read 1.29.

Set 2
Target: RING finger protein unkempt homolog, zinc fingers 1-6, GST-SBP tag (UNK, Homo sapiens, UniProt Q9C0B0, residues 30-357)
Technique: RNA Bind-n-Seq
Molecule type: RNA
Medium: in vitro
Concentration: not given
Setting: RNA with constant flanks, human and mouse sites, ends assumed
Reference: input RNA pool
Reading: higher = stronger binding
All sequences stand within: GGGAGUUCUACAGUCCGACGAUC … CAACAGAGGAUUGAGCAUCA
Target sequence (chain): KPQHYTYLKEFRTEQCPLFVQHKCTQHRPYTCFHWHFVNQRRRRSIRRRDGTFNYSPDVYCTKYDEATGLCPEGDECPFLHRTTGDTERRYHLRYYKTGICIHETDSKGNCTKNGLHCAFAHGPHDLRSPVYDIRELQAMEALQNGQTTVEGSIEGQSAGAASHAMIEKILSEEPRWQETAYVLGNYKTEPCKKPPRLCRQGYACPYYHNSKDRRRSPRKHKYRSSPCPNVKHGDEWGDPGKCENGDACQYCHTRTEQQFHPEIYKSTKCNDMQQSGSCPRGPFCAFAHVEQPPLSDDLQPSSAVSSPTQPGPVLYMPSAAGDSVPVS
For `AAGUUCUAGAAGGCAUUAUACAAGGUCACGAUCACGAUCUCGCUCGCAUAGACGAUCCCGGAGCAGGUCUUACAGCCGAGAUUAUCGCAGGCGCCACAGCCACAGCCAUUCUCCCAUGUC`, the bound/input enrichment was 0.209 ratio.
For `GGACUGGAGUACCUUGCGUGCAGUUAUGUCGGCGUCGGUAGUGUCUGUCAUUUCGCGGUUCUUAGAAGAGUACUUGAGCUCCACUCCGCAGCGUCUGAAGUUGCUGGACGCGUACCUGCU`, the bound/input enrichment was 0.125 ratio.
With `AUUGGGACCAGCUCUCUGAAUAGAAAUAGUAGUAAAAAAACCAAGCAAAAUGAUAUUUGUAUAGAAAAAACAGAAGCUAAAUCAUGUAAAGUAAACGCUGCCAGUGUUCCAGGCCCUAAA` the bound/input enrichment was 55.5 ratio.
The bound/input enrichment of `UAUAUUUUGGAUUUUGUUUGUGUUGAAUUUUUUAAUCAUUGUGCACAGAAGCAUCAUUGGUAGCUUUUAUAUGCAAAAUGGUCAUUUCAGAUGUAUGGUGUUUUUACACUACAAAGAAGU` is reported as 0.137 ratio.
For `AAGGAUGGUGAGCUCCCUGUGGAGGACGACAUUGACCUCAGUGACGUGGAGCUGGAUGACCUGGAGAAGGAUGAGUUGUGAGCCACGGCCCAGCCUUCCUUGGGCUUUCCUUGGGAGCGA`, the bound/input enrichment was 0.106 ratio.
The bound/input enrichment of `UUGAAAACACAGCACUUAGGUUGGCUUAGCUGCAGCCUCCUCAGAGGUCAGAUUAUUUAUUUAAAAUUACUGGUUGCAUCAAGAACCCAUAGGGUGUACAAACGGUUCUAUACAAUCUGC` is reported as 0.95 ratio.
With `UUGGAAUAAAUGAGUGAAAGUUGGACAUAGUUGUGCACACCUUCAGACCAGCACUUGGGAGGUGGAGGCAGAAGAACAGGACUUCAAAGUUACUAGGCUUCAUAGUAAAUUUGAGGCCAA` the bound/input enrichment was 0.233 ratio.
`GCAAGACGGUGCAGCGUGACAUCCGUGGAGUCCACAGUGUCCUCGGGGACCCAGACAGCCAUUCAGGAUGACCCAGAGCAGUUUGAGGUCAUCAAACAACAGAAGGAAAUCAUUGAGCAU` gave a bound/input enrichment of 0.0892 ratio.
With `CUGUUUUGACAGCCACACAAUCUUGGCAUGUAUUAAGGAAAAAAAAAAUCCCUGUUGAAGUAGUUUUUCCACCUAUCAGCACUGAGUAAAUGCCAUAACUCCGCGGAAAUGGUCUAAAUA` the bound/input enrichment was 0.258 ratio.
For `GACAUUUGGACAUUACUGGGGACGGUGCUUUAUCCAUUCCUGGCCAUAUGGAGAUUAAUUAGCAAUUUUUUAUUUAGCAAUCCUCCUCCUGCACAGACUUCAGCAAGAGCCACAUCCACA`, the bound/input enrichment was 442 ratio.
The bound/input enrichment of `ACAGCCAUCUGGAAUUUACUAGUUACAACGGGUCAAGAGGUUAAAUAUGAUUUGUUGGUAAGUAAUGCAAUUCAAUUUCUGGCUUCAGUUUGUGAGAGACCUCAUUAUAAGAAUCUAUUU` is reported as 0.228 ratio.

Set 3
Target: Fragile X messenger ribonucleoprotein 1, C-terminal low-complexity region (Fmr1, Mus musculus, UniProt P35922)
Technique: RNA Bind-n-Seq
Molecule type: RNA
Medium: in vitro
Concentration: 200 nM
Setting: whole 134-nt RNA, ends assumed
Together with: 150 mM LiCl
Reference: input library
Reading: higher = stronger binding
Library: 7-deaza-guanosine replaces G
All sequences stand within: GGGAGUUCUACAGUCCGACGAUC … UGGAAUUCUCGGGUGUCAAGG
`CAAGUCCUGUGCUACACAUCGUAUGUACCGAAUCGGAAAGGGGAAAGGGAAAGGGAAAGUAUUAUGUUACGCCGUUCGGAUCUGCACUUC` has a log2 enrichment of -0.447.
For `CCUCAAGUCCUGUGCUACACAUCGUAUGUACCGAAUCGGAAGGGAAGGAAGGAAAGUAUUAUGUUACGCCGUUCGGAUCUGCACUUCCAG`, the log2 enrichment was -1.57.
The log2 enrichment of `UCCUCAAGUCCUGUGCUACACAUCGUAUGUACCGAAUCGGAGGAGGGAGGGAAAGUAUUAUGUUACGCCGUUCGGAUCUGCACUUCCAGC` is reported as -2.12.
The log2 enrichment of `UAACUUUAGAGGAGGAUCUGAUGGAUAUGGCAGUGGACGUGGAUUUGGGGAUGGCUAUAAUGGGUAUGGAAGAGGACCUGGAGGUGGCAA` is reported as -0.0271.
With `AAGUCCUGUGCUACACAUCGUAUGUACCGAAUCAAACCCAAACCCCCAAAUUUAAAAAAGUAUUAUGUUACGCCGUUCGGAUCUGCACUU` the log2 enrichment was 1.18.
For `CAAGUCCUGUGCUACACAUCGUAUGUACCGAAUCGGAAAGGAAAAAAAGGUUUGGAAAGUAUUAUGUUACGCCGUUCGGAUCUGCACUUC`, the log2 enrichment was -2.51.
With `CAAGUCCUGUGCUACACAUCGUAUGUACCGAAUCGGGGUUGGGGUUGGGUUGGGGAAAGUAUUAUGUUACGCCGUUCGGAUCUGCACUUC` the log2 enrichment was 0.356.
For `AAGUCCUGUGCUACACAUCGUAUGUACCGAAUCGGGGCCCCGGGGCCCCGGCCCCGGAAAGUAUUAUGUUACGCCGUUCGGAUCUGCACU`, the log2 enrichment was -2.35.
For `GCAGGAAGUAAAAACAAAUGGAAAUGCUUCGGAUAGUGGCAGGGGUGGGGGUUGCUAAGGAAAGGGUGGGAUGGGAGUGGGUAAUGAGUU`, the log2 enrichment was 2.14.
`UGGGAGGUGGAUUUUGUUUAUUUUUUUAGCUCAUUUCCAGGGGUGGGAAUUUUUUUUGAAUAUGUGUCAUGAAUAAAGUUGUUUUUGAAA` has a log2 enrichment of -0.291.
The log2 enrichment of `AGUCCUGUGCUACACAUCGUAUGUACCGAAUCGGCCCCCGGGCCCCCGGGGCCCCCGGAAAGUAUUAUGUUACGCCGUUCGGAUCUGCAC` is reported as -3.08.

Set 4
Target: Histone acetyltransferase KAT6A, both winged helices, GST fusion (KAT6A, Homo sapiens, UniProt Q92794, residues 1-181)
Technique: protein binding microarray
Molecule type: double-stranded DNA, one strand shown
Medium: in vitro
Concentration: not given
Setting: 8-mer, flanks averaged, mean of 2 arrays, mostly near background
Reference: not given
Reading: higher = stronger binding
Construct (chain): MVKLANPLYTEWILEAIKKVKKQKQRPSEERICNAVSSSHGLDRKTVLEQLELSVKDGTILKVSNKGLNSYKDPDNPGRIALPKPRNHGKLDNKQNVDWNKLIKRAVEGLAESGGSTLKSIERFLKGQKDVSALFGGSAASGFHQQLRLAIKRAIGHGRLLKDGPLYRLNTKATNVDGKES
With `GCCTGGGA` the E-score was -0.0475.
`ATGCAATC` gave an E-score of -0.00397.
With `ACCGATGA` the E-score was 0.0603.
`AATGTTCG` has an E-score of 0.0605.
With `GCTGCGGA` the E-score was 0.0546.
For `CTGCCGCC`, the E-score was 0.239.
For `ATTTGCCC`, the E-score was -0.0462.
For `CGTATATC`, the E-score was 0.0912.
With `AGGCATCC` the E-score was -0.288.
The E-score of `ATTCACAA` is reported as -0.106.
The E-score of `TCGGCGCA` is reported as 0.232.
`CTGTACGC` has an E-score of 0.19.
`CGGCTTTC` gave an E-score of 0.267.
The E-score of `GCGCAAGC` is reported as 0.312.
With `GAGGAGGA` the E-score was -0.129.
With `ACGTTTTG` the E-score was -0.141.
`GTGATTTA` gave an E-score of -0.0191.
`GACCTATC` gave an E-score of -0.0886.
`ACATAAGT` gave an E-score of -0.102.
`GAATGGAC` has an E-score of -0.148.
The E-score of `CTGCTGAA` is reported as -0.159.
`CATTAAAA` has an E-score of -0.0513.
With `GCAGCCAC` the E-score was -0.0167.
`TCTGGTAA` gave an E-score of -0.0489.

Set 5
Target: Prothrombin, mature alpha-thrombin (F2, Homo sapiens, UniProt P00734)
Technique: aptamer microarray, sandwich
Molecule type: DNA with 2'F-ANA
Medium: in vitro
Concentration: 200 nM
Setting: whole 15-mer aptamer, many near background
Together with: Cy3 exosite-II aptamer, 400 nM
Reading: higher = stronger binding
Oligonucleotide: GGTTGGTGTGGTTGG
Under “mean fluorescence intensity”, `2'F-ANA at 2 3 4 7 9 10 11 14` is recorded as 183 a.u.
`2'F-ANA at 3 4 9 12 13 15` — result for “mean fluorescence intensity”: 686 a.u.
`2'F-ANA at 2 7 9 12 13`: “mean fluorescence intensity” 502 a.u.
`2'F-ANA at 2 3 6 7 8 15` — result for “mean fluorescence intensity”: 800 a.u.
`2'F-ANA at 2 3 4 7 11 12 15` — result for “mean fluorescence intensity”: 920 a.u.
Under “mean fluorescence intensity”, `2'F-ANA at 2 4 5 6 8 10` is recorded as 46.1 a.u.
`2'F-ANA at 2 3 4 5 6 7 9 10 14`: “mean fluorescence intensity” 49 a.u.
`2'F-ANA at 3 4 9 10 11`: “mean fluorescence intensity” 246 a.u.
Under “mean fluorescence intensity”, `2'F-ANA at 4 5 6 7 9 11 12 13 14 15` is recorded as 54.5 a.u.
`2'F-ANA at 3 4 5 6 7 10 12 14 15`: “mean fluorescence intensity” 48 a.u.
`2'F-ANA at 1 2 4 5 6 9 10 15` — result for “mean fluorescence intensity”: 48.9 a.u.
`2'F-ANA at 3 6 7 8 9 11 15`: “mean fluorescence intensity” 705 a.u.
Under “mean fluorescence intensity”, `2'F-ANA at 2 3 4 5 9 10 15` is recorded as 91.7 a.u.
`2'F-ANA at 2 3 5 6 7 10 13`: “mean fluorescence intensity” 61.6 a.u.
`2'F-ANA at 1 5 6 7 8 13 14` — result for “mean fluorescence intensity”: 51.5 a.u.
For `2'F-ANA at 3 4 5 8 9 11 12 15`, “mean fluorescence intensity” read 212 a.u.
Under “mean fluorescence intensity”, `2'F-ANA at 1 5 9 12 13 15` is recorded as 72.1 a.u.
Under “mean fluorescence intensity”, `2'F-ANA at 3 12 13` is recorded as 1230 a.u.
Under “mean fluorescence intensity”, `2'F-ANA at 1 7 11 12 15` is recorded as 319 a.u.
For `2'F-ANA at 1 8 11 13 14`, “mean fluorescence intensity” read 82.8 a.u.
Under “mean fluorescence intensity”, `2'F-ANA at 1 3 5 8 10 11 12 13 15` is recorded as 46.7 a.u.
Under “mean fluorescence intensity”, `2'F-ANA at 2 3 4 5 6 7 8 10 11 12 13 14 15` is recorded as 52.8 a.u.
`2'F-ANA at 1 6 7 8 10 11 13 14 15` — result for “mean fluorescence intensity”: 53.7 a.u.
`2'F-ANA at 1 2 4 5 6 12 14 15` — result for “mean fluorescence intensity”: 48.2 a.u.
Under “mean fluorescence intensity”, `2'F-ANA at 5 7 8 9 13 14` is recorded as 47.7 a.u.

A few entries again (set 4):
With `GCTGCGGA` the E-score was 0.0546.
`CGGCTTTC` gave an E-score of 0.267.
The E-score of `CTGCTGAA` is reported as -0.159.
`CTGTACGC` has an E-score of 0.19.
With `GAGGAGGA` the E-score was -0.129.
With `GCCTGGGA` the E-score was -0.0475.
